Published values pooled from the literature.
A part holds a random share of what one study measured.

Series 1
Target: RING finger protein unkempt homolog, zinc fingers 1-6, GST-SBP tag (UNK, Homo sapiens, UniProt Q9C0B0, residues 30-357)
UniProt Q9C0B0, sequence (30-357, looked up): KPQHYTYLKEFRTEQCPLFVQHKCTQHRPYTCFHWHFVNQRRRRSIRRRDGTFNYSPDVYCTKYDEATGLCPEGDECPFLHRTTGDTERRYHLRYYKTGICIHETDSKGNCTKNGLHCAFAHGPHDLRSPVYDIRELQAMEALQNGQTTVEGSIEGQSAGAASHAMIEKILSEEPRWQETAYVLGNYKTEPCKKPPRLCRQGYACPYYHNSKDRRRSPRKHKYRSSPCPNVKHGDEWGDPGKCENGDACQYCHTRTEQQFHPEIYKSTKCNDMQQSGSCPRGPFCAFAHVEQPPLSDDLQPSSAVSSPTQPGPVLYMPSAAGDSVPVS
Method: RNA Bind-n-Seq
Form: RNA
Matrix: in vitro
Tested at: not given
Notes: RNA with constant flanks, human and mouse sites, ends assumed
Relative to: input RNA pool
Reading: higher = stronger binding
For `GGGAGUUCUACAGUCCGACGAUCAACAGUUUGUAAGAUGUGAAGGGUAAAGUUGAGUGUUGUAUGCUUAUGAGUAGUGGAAAACUGGACAUCUGAGACAGGCAAGGCAGUGUCCAUACAAGACUGAAGUCUGAAGCAGCCUAGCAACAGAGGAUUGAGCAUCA`, the bound/input enrichment was 0.479 ratio.
With `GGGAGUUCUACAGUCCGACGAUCCUCUAGAGGAGGCCUCUAGGUCGCCAUGGCAACUGGGCAGAAGUUGAUGAGGGCUAUUCGAGUGUUUGAGUUUGGUGGACCAGAAGUGCUGAAGCUCCAGUCGGAUGUGGUCGUGCCUGUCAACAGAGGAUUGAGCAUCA` the bound/input enrichment was 0.257 ratio.
With `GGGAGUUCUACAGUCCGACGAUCAGGACCCCCGGGAGCCGGGCUCGGAGCAGACGAGGUAUCCGGCGGCGCCCAUUUGGGGGCUUCUAACUCUUUCUCCACGCAGCCCCUCUUCUGUCCCCUCCCCUCUCGCUCCCUUUUAAACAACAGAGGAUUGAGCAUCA` the bound/input enrichment was 0.309 ratio.
For `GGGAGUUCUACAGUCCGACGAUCAGCUCUCCCUGUGCUAACUGCCUGCACCUUGGACAGAGCGGGUGCGCAAAUCAGAAGGAUUAGUUGGGACCUGCCUUGGCGACCCCAUGGCAUCCCCCAGAACCGUAACUAUUGUGGCCCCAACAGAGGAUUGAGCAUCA`, the bound/input enrichment was 0.116 ratio.
`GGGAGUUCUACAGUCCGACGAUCCAGGUAUUUAUAGUGAAUCAUACUGUAAAAAAGAGGUAGCAUGAUAUGCUGGAAAGCAUAUUAGACUAGGAGUCAAGACCUGGUUUCUAGUCUUGGUUUUGCCAUUAAUGUGCUGCAUGACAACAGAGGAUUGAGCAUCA` has a bound/input enrichment of 0.208 ratio.
For `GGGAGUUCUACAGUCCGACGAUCUUACAAGUAUUUUAAUUUAAGUUCAGUGAACUUUUUUGUAGCUGGGUUAAAUCUUUUUAUUUUAGUAUGGCCUUAUGGCAAAGAACACUGUAUUAUUUUAAUAAUCACACAAUUGUGACGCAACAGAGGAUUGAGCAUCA`, the bound/input enrichment was 2.76 ratio.
`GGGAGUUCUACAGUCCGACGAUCCUUUACUGGCAAGAGACUUCCUUUGAUUUCUACUGUUUACAAAUAAAACUCAGCCAGUCUCAUUCUAUAUCCCAAACGUACUGAAUGAAACUGAUUUUGGUUCCACAAGCAGUGUUUGGGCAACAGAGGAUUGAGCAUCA` gave a bound/input enrichment of 0.111 ratio.

Series 2
Target: TAR DNA-binding protein 43, full length, His tag (TARDBP, Homo sapiens, UniProt Q13148, residues 1-414)
Method: RNA Bind-n-Seq
Form: RNA
Matrix: in vitro
Tested at: 20 nM
Notes: 6-mer, flanks averaged, single round
With: 150 mM LiCl
Relative to: input library
Reading: higher = stronger binding
`CAGUAA`: “6-mer enrichment (R)” 0.852.
Under “6-mer enrichment (R)”, `UAUCAG` is recorded as 0.859.
Under “6-mer enrichment (R)”, `GGUUCU` is recorded as 0.93.
`GCACCA`: “6-mer enrichment (R)” 0.984.
Under “6-mer enrichment (R)”, `UUCGCU` is recorded as 0.884.
Under “6-mer enrichment (R)”, `GUAUUA` is recorded as 0.997.
Under “6-mer enrichment (R)”, `GAGUUG` is recorded as 1.17.
`AUCUCA` — result for “6-mer enrichment (R)”: 0.806.

Series 3
Target: Prothrombin, mature alpha-thrombin (F2, Homo sapiens, UniProt P00734)
Method: aptamer microarray, sandwich
Form: DNA with 2'F-ANA
Matrix: in vitro
Tested at: 200 nM
Notes: whole 15-mer aptamer, many near background
With: Cy3 exosite-II aptamer, 400 nM
Reading: higher = stronger binding
Sequence: GGTTGGTGTGGTTGG
`2'F-ANA at 1 2 3 7 8 10 11 12 13 14 15`: “mean fluorescence intensity” 62.3 a.u.
For `2'F-ANA at 3 5 6 7 8 10 12`, “mean fluorescence intensity” read 73.1 a.u.
Under “mean fluorescence intensity”, `2'F-ANA at 1 2 4 6 10 11 14 15` is recorded as 47.6 a.u.
For `2'F-ANA at 1 2 3 9 12 15`, “mean fluorescence intensity” read 433 a.u.
For `2'F-ANA at 3 5 6 8 9 14 15`, “mean fluorescence intensity” read 53 a.u.
`2'F-ANA at 2 4 6 7 8 10 11 12 13 15`: “mean fluorescence intensity” 82.4 a.u.
`2'F-ANA at 2 4 6 8 10 11 13 14` — result for “mean fluorescence intensity”: 59.4 a.u.
For `2'F-ANA at 3 4 5 7 10 12 15`, “mean fluorescence intensity” read 68.3 a.u.
`2'F-ANA at 1 2 4 7 9 10 11 13 14`: “mean fluorescence intensity” 47.7 a.u.

Further values, each from its own experiment
With `PhoQ, residues 284 288 289 292 302 303 HSYLQF` the fold induction was 8.72 (PhoP, residues 12 14 15 18 19 VHSCL (Escherichia coli, UniProt P23836); Sort-seq, item: YFP reporter; E. coli; PhoQ-PhoP variant library, with: 10 µM Mg2+; relative to: high Mg2+ state, higher = stronger signaling).

Some of these lines once more (series 1):
With `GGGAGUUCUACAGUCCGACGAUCAGGACCCCCGGGAGCCGGGCUCGGAGCAGACGAGGUAUCCGGCGGCGCCCAUUUGGGGGCUUCUAACUCUUUCUCCACGCAGCCCCUCUUCUGUCCCCUCCCCUCUCGCUCCCUUUUAAACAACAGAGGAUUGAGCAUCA` the bound/input enrichment was 0.309 ratio.
For `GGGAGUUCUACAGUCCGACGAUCAACAGUUUGUAAGAUGUGAAGGGUAAAGUUGAGUGUUGUAUGCUUAUGAGUAGUGGAAAACUGGACAUCUGAGACAGGCAAGGCAGUGUCCAUACAAGACUGAAGUCUGAAGCAGCCUAGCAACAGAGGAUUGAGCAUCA`, the bound/input enrichment was 0.479 ratio.
With `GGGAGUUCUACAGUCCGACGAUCCUCUAGAGGAGGCCUCUAGGUCGCCAUGGCAACUGGGCAGAAGUUGAUGAGGGCUAUUCGAGUGUUUGAGUUUGGUGGACCAGAAGUGCUGAAGCUCCAGUCGGAUGUGGUCGUGCCUGUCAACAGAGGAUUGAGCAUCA` the bound/input enrichment was 0.257 ratio.
`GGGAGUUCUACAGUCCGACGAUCCAGGUAUUUAUAGUGAAUCAUACUGUAAAAAAGAGGUAGCAUGAUAUGCUGGAAAGCAUAUUAGACUAGGAGUCAAGACCUGGUUUCUAGUCUUGGUUUUGCCAUUAAUGUGCUGCAUGACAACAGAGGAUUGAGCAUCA` has a bound/input enrichment of 0.208 ratio.
